Measured values from different studies.
Protocols differ between the studies behind these lines. ± marks the error that the study gave.

COc1ccc2c(c1)c(CC(=O)OCOC(C)=O)c(C)n2C(=O)c1ccc(Cl)cc1
writhing count (BALB/c mice, acetic acid writhing; intraperitoneal, 20 mg/kg, 20 min count): 12.2 ± 0.7

CC(=O)Nc1cccc(OCc2nnc(SCc3ccccc3C)o2)c1
immobility duration decrease (forced swimming test; mice; 40 mg/kg, 0.5 h; reference: control): 15.6%

CCOc1cncc(-c2ccc(NC(=O)C(CC)c3ccnc(NS(=O)(=O)C4CC4)n3)nc2)n1 (stereo not shown)
selectivity ratio (enzyme activity, inhibitor, RapidFire mass spectrometry; rat; reference: CTPS1 over CTPS2): 1

COc1c2c(cc3oc(COC4OC(CO)C(O)C(O)C4O)cc(=O)c13)OC(C(C)(C)O)C2 (stereo not shown)
ear edema weight increase (mouse, xylene ear edema; oral, 2 mg/kg): 5.45 ± 0.33 mg

C=CC(=O)N1C[C@H](C)N(c2nc(OC[C@@]34CCCN3C[C@H](F)C4)nc3c(F)c(-c4ccc(F)c5sc(N)c(C#N)c45)c(C(F)(F)F)cc23)C[C@H]1C
tumour growth inhibition (mouse MIA PaCa-2 xenograft; oral, 3 mg/kg daily, 28 days): 99%

CC(=O)N[C@@H](C)C(=O)N[C@@H](CO)C(=O)NC(C)(C)C(=O)N[C@@H](CC(C)C)C(=O)N[C@@H](CCCNC(=N)N)C(=O)N[C@@H](CCCCN)C(=O)N[C@@H](CC(C)C)C(=O)NC(C)(C)C(=O)N[C@@H](CCCCN)C(=O)N[C@@H](CCCNC(=N)N)C(=O)N[C@@H](CC(C)C)C(=O)N[C@@H](CC(C)C)C(N)=O
memory retention (male Long-Evans rat, fluid percussion injury; 1.0 mg/kg, 5 doses, post-injury day 11, retrograde amnesia task; reference: sham): no effect

CCOP(=O)(CC(=O)Nc1ccc(S(=O)(=O)N(CC(N)=O)c2ccc(N(CC(N)=O)S(=O)(=O)c3ccc(OC)cc3)c3ccccc23)cc1)OCC
protein level (western blot, refers to: total Nrf2; normal mice, hippocampus and cortex; oral, 40 mg/kg once daily, 60 days): increased

CN(C)c1ccc(-c2oc3ccccc3c(=O)c2OCc2ccccc2)cc1
serum total cholesterol (diabetic rat; 5 mg/kg, 28 days, p-nitrophenyl β-glucoside induced): 136 ± 4.7 mg/dL

CCCCCCCOC(=O)Cc1c(C)n(C(=O)c2ccc(Cl)cc2)c2ccc(OC)cc12
analgesia (acetic acid writhing test; BALB/c mouse; intraperitoneal, 10 mg/kg; reference: negative control): 46.2%

CCCC[C@H](NC(=O)[C@@H](NC(=O)[C@H](CC(=O)O)NC(=O)[C@H](CCC(N)=O)NC(=O)[C@H](CC(C)C)NC(=O)[C@H](CC(C)C)NC(=O)[C@H](CCCN)NC(=O)[C@H](CCCNC(=N)N)NC(=O)[C@H](C)NC(=O)[C@H](CO)NC(=O)[C@H](CC(C)C)NC(=O)[C@H](CCC(N)=O)NC(=O)[C@H](CC)NC(=O)[C@H](CC(C)C)NC(=O)[C@@H](NC(=O)[C@H](CCCN)NC(=O)[C@H](CCCNC(=N)N)NC(=O)[C@H](Cc1ccc(O)cc1)NC(=O)[C@H](CO)NC(=O)[C@H](CCC(N)=O)NC(=O)[C@@H](NC(=O)[C@H](Cc1ccccc1)NC(=O)[C@@H](NC(=O)[C@H](C)NC(=O)[C@H](CC(=O)O)NC(=O)[C@@H](C)NC(=O)[C@H](Cc1ccc(O)cc1)NC)[C@@H](C)CC)[C@@H](C)O)C(C)C)[C@@H](C)CC)C(=O)N[C@@H](CC(=O)O)C(=O)N[C@@H](CCCNC(=N)N)C(=O)NC
serum GH level (GH release, ELISA; male Sprague-Dawley rat, anaesthetised, serum; subcutaneous, 3 µg/kg, 30 min): 282 ± 18.6 ng/mL

Cc1ncc([N+](=O)[O-])n1CCOCc1nnc(SCC(=O)c2ccc(Br)cc2)o1
DPPH scavenging (100 µg/mL, 45 min): 42.71 ± 0.25%

CC[C@H]1[C@@H](O)[C@@H]2[C@H](CC[C@]3(C)[C@@H]([C@H](C)CCOS(=O)(=O)[O-])CC[C@@H]23)[C@@]2(C)CC[C@@H](O)C[C@@H]12.[Na+]
reduction of fibrosis stage (ob/ob NASH mouse, liver; 10 mg/kg, 8 weeks; reference: baseline): ~1 points

CC(C)C[C@@H]1NC(=O)[C@H](CS)NC(=O)[C@H](CCCCN)NC(=O)[C@H](CC(=O)O)N(C(=O)[C@@H](N)Cc2c[nH]c3ccccc23)CCCNC(=O)NCCCCN([C@@H](C)C(N)=O)C1=O
arthritis severity score (DBA/1 mouse collagen-induced arthritis; intraperitoneal, 360 pg/g weekly; reference: PBS): no effect

Cc1ccc(-c2oc3ccccc3c(=O)c2OCc2ccccc2)cc1
serum LDL cholesterol (diabetic rat; 5 mg/kg, 28 days, p-nitrophenyl β-glucoside induced): 129 ± 3.41 mg/dL

CCCC[C@H](NC(=O)[C@@H](NC(=O)[C@H](CC(=O)O)NC(=O)[C@H](CCC(N)=O)NC(=O)[C@H](CC(C)C)NC(=O)[C@H](CC(C)C)NC(=O)[C@H](CCCN)NC(=O)[C@H](CCCNC(=N)N)NC(=O)[C@H](C)NC(=O)[C@H](CO)NC(=O)[C@H](CC(C)C)NC(=O)[C@H](CCC(N)=O)NC(=O)[C@H](CC)NC(=O)[C@H](CC(C)C)NC(=O)[C@@H](NC(=O)[C@H](CCCN)NC(=O)[C@H](CCCNC(=N)N)NC(=O)[C@H](Cc1ccc(O)cc1)NC(=O)[C@H](CO)NC(=O)[C@H](CCC(N)=O)NC(=O)[C@@H](NC(=O)[C@H](Cc1ccccc1)NC(=O)[C@@H](NC(=O)[C@H](C)NC(=O)[C@H](CC(=O)O)NC(=O)[C@H](C)NC(=O)[C@H](Cc1ccc(O)cc1)NC)[C@@H](C)CC)[C@@H](C)O)C(C)C)[C@@H](C)CC)C(=O)N[C@@H](CC(=O)O)C(=O)NCCCCNC(=N)N
serum GH level (GH release, ELISA; male rat, anaesthetised, serum; intravenous, 1 µg/kg, 15 min): 250 ± 58.1 ng/mL

C=C(c1ncc(C(=O)O)cn1)c1cc2c(cc1C)C(C)(C)CCC2(C)C
log2 fold change (RNA sequencing, refers to: Lyve1; rat, brain; dose not given, 24 h; reference: vehicle): -0.049

CC1=C(O)C(=O)C=C2C1=CC=C1[C@@]2(C)CC[C@@]2(C)[C@@H]3C[C@](C)(C(=O)NCCOCCOCCOCCOCC(=O)N[C@H](C(=O)N4C[C@H](O)C[C@H]4C(=O)N[C@@H](C)c4ccc(-c5scnc5C)cc4)C(C)(C)C)CC[C@]3(C)CC[C@]12C
monocytic MDSC (CD11b+Ly6C+) (flow cytometry; mouse, B16-F10 melanoma model, blood; ip, 2 doses of 1.8 mg/kg): decreased

CC(C)(O)c1ccc(N2Cc3c(ccnc3-c3ccc(F)cc3OCC(F)(F)F)C2=O)cc1
glucosylsphingosine level (Gaucher disease mouse model, plasma; 30 mg/kg, single dose; reference: vehicle): 88 ± 4%

O=c1c(OCc2ccccc2)c(-c2ccc(Cl)cc2)oc2ccccc12
serum alanine aminotransferase (diabetic rat; 5 mg/kg, p-nitrophenyl β-glucoside induced): 31.7 ± 2.11 IU

COc1cc(C(=O)OCCCN2CCCN(CCCOC(=O)c3cc(OC)c(OC)c(OCc4ccc([N+](=O)[O-])cc4)c3)CC2)cc(OC)c1OC
cold hypersensitivity (acetone test; db/db mouse; intrathecal, 30 nmol): inhibited

CCCC[C@H](NC(=O)[C@@H](NC(=O)[C@H](CC(=O)O)NC(=O)[C@H](CCC(N)=O)NC(=O)[C@H](CC(C)C)NC(=O)[C@H](CC(C)C)NC(=O)[C@H](CCCN)NC(=O)[C@H](CCCNC(=N)N)NC(=O)[C@H](C)NC(=O)[C@H](CO)NC(=O)[C@H](CC(C)C)NC(=O)[C@H](CCC(N)=O)NC(=O)[C@H](CC)NC(=O)[C@H](CC(C)C)NC(=O)[C@@H](NC(=O)[C@H](CCCN)NC(=O)[C@H](CCCNC(=N)N)NC(=O)[C@H](Cc1ccc(O)cc1)NC(=O)[C@H](CO)NC(=O)[C@H](CCC(N)=O)NC(=O)[C@@H](NC(=O)[C@H](Cc1ccccc1)NC(=O)[C@@H](NC(=O)[C@H](C)NC(=O)[C@H](CC(=O)O)NC(=O)[C@H](C)NC(=O)CCc1ccc(O)cc1)[C@@H](C)CC)[C@@H](C)O)C(C)C)[C@@H](C)CC)C(=O)N[C@@H](CC(=O)O)C(=O)NCCCCNC(=N)N
serum GH level (GH release, ELISA; male Sprague-Dawley rat, anaesthetised, serum; subcutaneous, 3 µg/kg, 30 min): 129 ± 13.3 ng/mL

CC[C@H](C)[C@H](NC(=O)[C@H](Cc1c[nH]cn1)NC(=O)[C@@H]1CSSC[C@H](NC(=O)[C@H](Cc2c[nH]cn2)NC(=O)[C@H](Cc2ccccc2)NC(=O)CN2CCN(CC(=O)O)CCN(CC(=O)O)CCN(CC(=O)O)CC2)C(=O)N2C[C@H](O)C[C@H]2C(=O)N[C@@H](Cc2ccc(O)c(Cl)c2)C(=O)N[C@@H](CC(=O)O)C(=O)N[C@@H](CC(C)C)C(=O)N1)C(=O)N[C@@H](CC(C)C)C(=O)NCc1ccc(CNC(=O)CN2CCN(CC(=O)O)CCN(CC(=O)O)CCN(CC(=O)O)CC2)cc1 [indium-111 labelled]
thrombus to contralateral ratio (PET/SPECT imaging; rat, carotid crush thrombosis model; 30 to 90 min post-injection; reference: thrombus over contralateral carotid): > 4 fold

For quick reference, copied from above:
O=c1c(OCc2ccccc2)c(-c2ccc(Cl)cc2)oc2ccccc12
serum alanine aminotransferase (diabetic rat; 5 mg/kg, p-nitrophenyl β-glucoside induced): 31.7 ± 2.11 IU
